Assay results from different studies.
Numbered parts are unrelated; each lists some results of a single study.

Set 1
Target: Interferon regulatory factor 7, full length, phosphomimetic (IRF7, Homo sapiens, UniProt Q92985, residues 1-503, S101K/S471D/S472D/S475D/S476D/S477D/S483D/S484D/S487D)
Technique: protein-binding microarray
Form: double-stranded DNA, one strand shown
Sample: in vitro
Concentration: 250 nM
Setting: 60-bp whole probe
Together with: salmon DNA 0.4 mg/ml
Relative to: random background probes
Reading: higher = stronger binding
Quantity: log fluorescence
Shared flanks, not repeated: GCCTAGCAC … GTCTTGATTCGCTTGACGCTGCTG
Target sequence (chain): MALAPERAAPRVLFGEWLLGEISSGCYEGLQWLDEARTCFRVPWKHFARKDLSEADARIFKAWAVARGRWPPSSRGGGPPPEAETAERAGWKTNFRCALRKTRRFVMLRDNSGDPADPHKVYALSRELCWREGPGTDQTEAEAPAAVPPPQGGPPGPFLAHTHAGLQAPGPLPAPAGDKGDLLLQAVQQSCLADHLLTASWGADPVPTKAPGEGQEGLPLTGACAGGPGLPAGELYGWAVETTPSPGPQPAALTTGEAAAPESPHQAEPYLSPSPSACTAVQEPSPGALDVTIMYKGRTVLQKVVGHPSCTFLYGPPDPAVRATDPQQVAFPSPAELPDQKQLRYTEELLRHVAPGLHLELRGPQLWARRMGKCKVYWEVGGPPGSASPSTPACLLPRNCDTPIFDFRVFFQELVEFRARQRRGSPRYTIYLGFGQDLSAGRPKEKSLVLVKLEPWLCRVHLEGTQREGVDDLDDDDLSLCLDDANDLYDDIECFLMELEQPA
GACGAACTGGGGAGTGGAGACGTGCTA: -0.494 z-score
TTAGGTTTCGGTTTCGTTTAGTGCTAG: 15 z-score
CTAGATTCCAGTTTCGATTAGTGCTAG: 10.2 z-score
TTAGGTATCGACACTGGGTCAGTGCTA: -0.149 z-score
TACGAACTGGGGTTTCGAGACGTGCTA: 1.74 z-score
TGCTTCCTCTTTTTTGTTCCGTGCTAG: 1.85 z-score
GACGACCTGAGTTTCGAGACGTGCTAG: 3.45 z-score
GACTTTTTAGATTTTTTTTCGTGCTAG: 0.925 z-score
TCAGTGCTCCTTTTAATACTGTGCTAG: -0.00451 z-score
GACGATATCGGGTACCGAGACGTGCTA: -0.283 z-score
TCAGCTCTCCGGGGTCTGACTGTGCTA: -0.572 z-score
TCATCTCCCAAGTCTTGTACTGTGCTA: 0.594 z-score
TTAGGTTTCGGGACCGGGTTAGTGCTA: 3.92 z-score
GTAGGTTTCGGTTTCGGTTAGTGCTAG: 15.2 z-score
TATGTTCCTTTAGCACTTTGGTGCTAG: 0.843 z-score
AAGCTTCTGGTCTTCTGGACGTGCTAG: -0.325 z-score
GACGGTTTCGACACTGGGGGCGTGCTA: 4.94 z-score
TTAGGACTGGACCATCGGTTAGTGCTA: -0.36 z-score
TAGAGGGAGTAAAGGAAAGAGTGCTAG: -0.607 z-score
GACGATTTCAGGATCGAGACGTGCTAG: 0.367 z-score
GACGGACTGCGTCTCCTGACGTGCTAG: -0.563 z-score
TTAGGTCTCCTAGTGCTTTAGTGCTAG: -0.224 z-score
GACGGTATCGATTATCGGGACGTGCTA: 0.938 z-score
AGAGCTAAGTGAGTGTCATCGTGCTAG: -0.974 z-score
TAGAATGTCCTTTCTCCATGGGTGCTA: 0.121 z-score

Set 2
Target: PABPC1L2, full length, GST fusion (mouse, UniProt A0ABA7IW68)
Technique: RNAcompete
Form: RNA
Sample: in vitro
Concentration: 20 nM
Setting: 7-mer, probes averaged, single round
Relative to: mean of 7-mers
Reading: higher = stronger binding
Quantity: 7-mer Z-score
Residues (chain): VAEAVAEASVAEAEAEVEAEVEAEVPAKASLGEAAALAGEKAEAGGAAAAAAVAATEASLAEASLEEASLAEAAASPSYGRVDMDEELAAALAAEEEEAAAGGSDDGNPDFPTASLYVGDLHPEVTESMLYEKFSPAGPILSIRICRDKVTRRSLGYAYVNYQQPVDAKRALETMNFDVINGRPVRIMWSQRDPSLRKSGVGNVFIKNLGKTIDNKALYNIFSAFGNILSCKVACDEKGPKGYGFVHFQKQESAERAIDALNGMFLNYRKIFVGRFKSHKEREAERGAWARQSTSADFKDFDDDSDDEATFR
CGGCCGC: -0.351
CAAGAAA: 1.58
UACGCCG: -0.342
CAUAAGG: -0.0264
GUUCUUA: -0.248
ACUUUAU: -0.0283
UUAUAGA: -0.0826
CUCUCUC: -0.465
GCACACC: -0.175
CUUCGUC: -0.498
GCACGAG: 0.0732
UCCCCUU: -0.463
CAUACGG: -0.0573
CCCGAAC: -0.144
GACUUUC: -0.296
GAUAAGA: 0.229
GGGAGCG: 0.345
GUGGGCU: 0.0932

Set 3
Target: Myc proto-oncogene protein, bHLH-zipper, MAX partner unstated (MYC, Homo sapiens, UniProt P01106, residues 368-449)
Chain of UniProt P01106 (368-449, looked up): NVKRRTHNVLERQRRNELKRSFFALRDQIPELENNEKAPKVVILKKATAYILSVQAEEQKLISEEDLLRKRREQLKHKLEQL
Technique: protein-binding microarray
Form: double-stranded DNA, one strand shown
Sample: in vitro
Concentration: not given
Setting: k-mer, scored over probes, only values ≥0.25
Reading: higher = stronger binding
Quantity: E-score
GCGTGCAC: 0.414
ACCACGCA: 0.406
CGCCCCAC: 0.366
GGCACGAC: 0.274
CGTGTTCC: 0.305
ACATGATC: 0.336
CGTACACG: 0.4
AGCATGCC: 0.378
ACGCGGCG: 0.366
ACCCACCC: 0.343
AACGTGCT: 0.417
CACGTGCA: 0.496
ACACACGA: 0.329
CATGGACG: 0.301
CGCACGAC: 0.255
CGTGGCTC: 0.413
AGCGTGCA: 0.369
ACGTTGTC: 0.368
GACCCACC: 0.271
CGCCGCAC: 0.347
CGGTGCAC: 0.264
ACGAGCAT: 0.256
ACATGATG: 0.285
CGTGATCC: 0.257
ACGCGTGA: 0.39

Set 4
Target: Histone acetyltransferase KAT6A, winged helix 2, GST fusion (KAT6A, Homo sapiens, UniProt Q92794, residues 85-181)
Technique: protein binding microarray
Form: double-stranded DNA, one strand shown
Sample: in vitro
Concentration: not given
Setting: 8-mer, flanks averaged, mean of 2 arrays, mostly near background
Relative to: not given
Reading: higher = stronger binding
Quantity: E-score
Target sequence (chain): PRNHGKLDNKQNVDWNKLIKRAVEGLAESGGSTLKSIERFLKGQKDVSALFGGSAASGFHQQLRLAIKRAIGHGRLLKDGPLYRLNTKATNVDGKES
ACACTCCG: -0.134
AACATGCA: -0.0187
AGTGGCGC: 0.0826
AAAAGTCC: -0.0516
CCGCCTAG: 0.144
AGTCCAAT: -0.0519
TAATAGAA: 0.057
AAGGAGGC: -0.0567
ACAGGCCC: -0.129
CAACAATG: 0.0132
CGATGGCA: 0.0881
ATGTGGAC: -0.0905
CAAACTAG: -0.029
CTGACCGA: -0.0496
ACCAAACC: 0.0986
GCAAACTA: 0.095
ACTACTCT: -0.148
ATAACTCC: -0.135
CTTGTTGA: -0.000675
GAGATGTA: -0.157
GGCGCGAA: 0.302
AAGTGGCA: 0.0132
ATATAGGC: -0.0767
AGGCGTTC: -0.0842

Set 5
Target: RNA binding protein fox-1 homolog 2, RRM domain, GST-SBP tag (RBFOX2, Homo sapiens, UniProt O43251-10, residues 100-194)
Technique: RNA Bind-n-Seq
Form: RNA
Sample: in vitro
Concentration: 365 nM
Setting: natural RNA segment, single round, ends assumed
Relative to: no-protein control
Reading: higher = stronger binding
Quantity: RBNS enrichment (R)
Shared flanks, not repeated: GGGAGUUCUACAGUCCGACGAUC … UGGAAUUCUCGGGUGCCAA
Construct (chain): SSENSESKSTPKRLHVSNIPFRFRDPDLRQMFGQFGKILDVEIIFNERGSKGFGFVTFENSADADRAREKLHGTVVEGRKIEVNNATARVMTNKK
AAGAAAGAACUCUCCACCCCAGCUCCCACCCUGCCCUGGCCUGGGUGGAGGAACUGUGCCUCCAUCCCCAGAAGAAACAGCCCCCUCUGCUGCUGGGGUGGGACUGUCUG: 0.486
ACCCCCCAGGGAGCUGCCUCCCAGGCAGGGGGUGCAGAAAAUGAUUGAUGGGCUGGGGAACCCUGGAGAGCCUCGACUCCGGAAGUCUCAAGGUGCCUCCUCCUCUCCUU: 0.297
CUGACUAUUGAUAUACGCCCCCAAACUUAAGGUGUUCAUGUUAGAUUUUAAUUAGCUGUGAGAUUUAUGCACAAAGUGAAUAUUUAGCUGAUAGAAAUUAUGAUUUUGUU: 0.73
UUCCACAAAGGAGGGCUGAGAGUGAACGUGAUCAUACGUAGUUGUGAAAUCGGUUUGAUUGAGUGGGCUCUGAAAGGGGCAUUUAAUGGUCUUGUUUCUUCAUAACUCAC: 0.518
GUUCUCCUUCUGUGAGCAUGGAGUUGAAUGGAAUGCCCACCAGGCCGAGUCUUCUUAGAUGACUGAGCACUGCUUGAUGUUGUGUUUUGAAUAAUUUAAUCUGUACAAUA: 0.408
CACCUCCACUAACGCUGUCUCAGUGUUUUCUCUCUCUCUCUCGAGCUCGUAGUCCAGCGCCUGACUCUGCGUCGGCCCAUCCCACGCUGGGGCCAGCAGAAAGAAGACAG: 0.627
AGAUGGUGGAAUAGGUUUUAUCACAUCUCUUAUUUCUCUUUUCCCCUUACUCUCUACCAUUUCCUUUAUGUGGGGAAACAUUUUAAGGUAAUAAAUAGGUUACUUACCAU: 0.641
ACUGCUUUUGAUCUUCUGAUUCCUCUUGGGUUGACGCAGACCAAGUCCCGUCCUAGGCACCCAGUUUGGGGGGAGCCUGUAUUUUUUUUUUUAACGACACCCCUACUCCG: 0.44
GUGGGCAUGGUGGGCAUCCCAUGCAGCACAACCCAAAUGGACCACCACCACCUUGGAUGCAGCCACCACCACCACCGAUGAACCAGGGCCCCCACCCACCUGGGCACCAU: 0.526
AGCUAGAAGAGCUUCCCCCUGACACCCUGUGACUGAGCCUGUGUCCUGUCUGCCUGCCCAGCCAUGCUCCAUCGGCUGUGAGGGCAGUGCCCGGAGAGGCCAGAGGGUUG: 0.505
GACAUUUAUUUUUCAUUUAGUUUGAUUAUUCAGUGUCACUGGCGACACGUAGCAGCUUAGACUAAGGCCAUUAUUGUACUUGCCUUAUUAGAGUGUCUUUCCACGGAGCC: 0.338
AGCUAAGAUUUGAUGGCCAGCUGGUUGCCAAAACCUCAAGUCAAUCCUGUGUGCUGGUUAGUUAUGCAAGAAGAAAGCCCCGUAGAAACAGCCUCCAGCUGCACUGGGAG: 0.561

Set 6
Target: Sal-like protein 4, full length isoform B (SALL4, Homo sapiens, UniProt Q9UJQ4-2, residues 1-616)
Technique: universal PBM
Form: double-stranded DNA, one strand shown
Sample: in vitro
Concentration: not given
Setting: 8-mer, flanks averaged, mean of replicates
Reading: higher = stronger binding
Quantity: E-score
Target sequence (chain): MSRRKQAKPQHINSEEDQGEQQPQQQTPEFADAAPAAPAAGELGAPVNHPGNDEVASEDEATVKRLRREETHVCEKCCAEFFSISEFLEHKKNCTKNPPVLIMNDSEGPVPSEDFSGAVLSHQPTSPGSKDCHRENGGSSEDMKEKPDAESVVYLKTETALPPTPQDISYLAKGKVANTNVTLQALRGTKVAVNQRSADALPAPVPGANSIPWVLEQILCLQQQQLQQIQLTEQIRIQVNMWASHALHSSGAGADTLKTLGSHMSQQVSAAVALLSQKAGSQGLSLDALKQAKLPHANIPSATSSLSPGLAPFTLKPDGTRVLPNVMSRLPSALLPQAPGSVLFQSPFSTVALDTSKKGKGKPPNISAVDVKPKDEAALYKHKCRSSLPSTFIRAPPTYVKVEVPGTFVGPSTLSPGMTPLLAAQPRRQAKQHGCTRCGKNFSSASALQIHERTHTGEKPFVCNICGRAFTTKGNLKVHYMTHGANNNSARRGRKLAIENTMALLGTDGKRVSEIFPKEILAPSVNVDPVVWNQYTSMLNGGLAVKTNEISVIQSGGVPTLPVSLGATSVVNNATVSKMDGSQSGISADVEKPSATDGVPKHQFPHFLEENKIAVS
CCATACCC: -0.106
AGAGCTAA: -0.0643
CTCTTGAC: -0.162
TAGTTGAA: 0.244
CAAAGCTC: -0.197
CGTATCAC: -0.0757
AGCAGGAG: -0.0416
AAGCTTGC: -0.0869
GCCCCTAA: -0.22
CCCCGCAC: -0.353
GAAACCCA: -0.0389
GCTGGTCC: -0.223
GCTACCAC: -0.162
AGTGGTGA: -0.00787
ACTTCTCA: 0.0517
CTTAGACA: -0.0833
CTGTTATA: 0.304
CAGCACAA: 0.0435
GAACGACC: -0.208
CTACTTGC: 0.083
CTCCTGCA: -0.0683
CCATTCGG: -0.116
AAAACGAT: 0.17
CCTAGCCC: -0.271
ACATAACT: 0.29

Excerpt of the above (set 4):
CTTGTTGA: -0.000675
TAATAGAA: 0.057
GGCGCGAA: 0.302
AGTCCAAT: -0.0519
ACCAAACC: 0.0986
AACATGCA: -0.0187
GCAAACTA: 0.095
CAAACTAG: -0.029
AGGCGTTC: -0.0842
ACTACTCT: -0.148
ACACTCCG: -0.134
GAGATGTA: -0.157
AAGTGGCA: 0.0132
